Assay results pooled from the literature.
Numbered parts are unrelated; each lists some results of a single study. Changes are numbered by the printed parent chain.

Series 1 — target: CCNA2, cyclin fold, Cln2 fusion (human); technique: yeast growth competition, sequencing; sample: yeast; notes: strong parent motif; relative to: not given; reading: higher = stronger binding
Parent: PKMYT1 docking peptide (human); SFEPRNLLSLFED; partner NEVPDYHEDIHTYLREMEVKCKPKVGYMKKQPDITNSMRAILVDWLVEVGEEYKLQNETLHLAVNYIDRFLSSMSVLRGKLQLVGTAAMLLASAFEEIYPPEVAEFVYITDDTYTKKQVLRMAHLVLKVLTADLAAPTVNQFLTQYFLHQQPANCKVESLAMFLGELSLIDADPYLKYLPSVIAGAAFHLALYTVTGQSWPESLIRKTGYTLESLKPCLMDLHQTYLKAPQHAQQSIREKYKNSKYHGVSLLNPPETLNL
For `SFEPGNLLSLFED [R5G]`, “normalised enrichment score” read -0.311.
Under “normalised enrichment score”, `SFHPRNLLSLFED [E3H]` is recorded as 3.73.
`SFEPRNLLSLGED [F11G]`: “normalised enrichment score” -0.532.
`SFEGRNLLSLFED [P4G]` — result for “normalised enrichment score”: 0.167.
For `SFEPRNLLSLFES [D13S]`, “normalised enrichment score” read 3.04.
`SFEPRNLLSLYED [F11Y]` — result for “normalised enrichment score”: 1.79.

Series 2 — technique: Sort-seq; measured: YFP reporter; sample: E. coli; notes: PhoQ-PhoP variant library; added: 10 µM Mg2+; relative to: high Mg2+ state; reading: higher = stronger signaling
Molecule: PhoQ, residues 284 288 289 292 302 303 NSMLDC
It gave 14.3 for fold induction (PhoP, residues 12 14 15 18 19 TQALL (Escherichia coli, UniProt P23836)).
It gave 8.65 for fold induction (PhoP, residues 12 14 15 18 19 QYFSL (Escherichia coli, UniProt P23836)).
The fold induction was 9.69 (PhoP, residues 12 14 15 18 19 NYFRM (Escherichia coli, UniProt P23836)).

Series 3 — technique: aptamer microarray, sandwich; molecule type: DNA with 2'F-ANA; sample: in vitro; concentration: 200 nM; added: Cy3 exosite-II aptamer, 400 nM; reading: higher = stronger binding; strand: GGTTGGTGTGGTTGG
Target: Prothrombin, mature alpha-thrombin (F2, Homo sapiens, UniProt P00734)
Notes: whole 15-mer aptamer, many near background
`2'F-ANA at 1 3 4 8 10 13`: “mean fluorescence intensity” 54.5 a.u.
`2'F-ANA at 1 6 7 8 9 13 14 15` — result for “mean fluorescence intensity”: 57.1 a.u.
For `2'F-ANA at 1 2 4 7 8 9 10 12 14`, “mean fluorescence intensity” read 44.2 a.u.
For `2'F-ANA at 1 2 3 4 5 7 10 11 13 14`, “mean fluorescence intensity” read 44 a.u.
Under “mean fluorescence intensity”, `2'F-ANA at 2 4 5 6 7 8 9 11` is recorded as 78.6 a.u.
`2'F-ANA at 1 3 4 8 9 12 15`: “mean fluorescence intensity” 425 a.u.
Under “mean fluorescence intensity”, `2'F-ANA at 1 2 5 10 14 15` is recorded as 48.7 a.u.
`2'F-ANA at 1 3 9 10 11 12 13`: “mean fluorescence intensity” 173 a.u.

Series 4 — technique: RNA Bind-n-Seq; molecule type: RNA; sample: in vitro; concentration: 365 nM; relative to: no-protein control; reading: higher = stronger binding
Target: RNA binding protein fox-1 homolog 2, RRM domain, GST-SBP tag (RBFOX2, Homo sapiens, UniProt O43251-10, residues 100-194)
Notes: natural RNA segment, single round, ends assumed
All sequences stand within: GGGAGUUCUACAGUCCGACGAUC … UGGAAUUCUCGGGUGCCAA
Residues (chain): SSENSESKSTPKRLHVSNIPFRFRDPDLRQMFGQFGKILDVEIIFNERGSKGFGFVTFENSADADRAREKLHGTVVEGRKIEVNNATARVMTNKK
For `GGUGCAAACUACCACGCCUGGCAGACCCACCAUUUCUUUGCUUUGGAAAGGUAAUUUAUGAUUAACUUAGAUAAUAGGUAAAAGCGACCUUACAAAAAACAUAAUUAUCU`, “RBNS enrichment (R)” read 0.57.
For `UGUAAUUAUAUACACAACAAAUAUUAGUGACUAGUUUUUGUAUUUGACAACUGUUUACCAUUGUGUUUAGGUUAUAUUCUAUAAAUACUCUUUAUAUGCAUAUAUAUGGC`, “RBNS enrichment (R)” read 0.388.
`GUUUUGAAAUGAUUGCUUCAGUCUUUGCCUUUGUUUGCAUUUGUGUUUAGUGAAAACUAGAGAAACACAAUAAGCAAAUCACUUGAAGGCUGAGAUGAUUGAACUGAAAG`: “RBNS enrichment (R)” 0.302.
`GAGAUGCUACCAAGUCUUGGAUGUUAGGGCGAGACCCUGCAAGUUGAGUAUUAGAGAGCUUGUCUUUCAAGGCAGGUUCCUGGGGCUUCAGGGCUAGGAGGGAGGAGCCU`: “RBNS enrichment (R)” 0.736.
For `AAUACAUUUCUUAAAGUUGAAAUCAUUUGCUUCUUCCAUAAUGGGACGUUGAAACUUCUGCUUUCGGAACAGCGUGUGUUGGAAAGCUUGUUUGAGAAUGGCUACUAGAG`, “RBNS enrichment (R)” read 22.1.
`UCAGAGGAGUUAUACUUUGAGGAGAAAACGCAAGAAAGGAAAAGAAAGCAAUUGCAAGAAAGGCGUUGAACAUGAAAAAAUAAAAAGUACCUUAAGAAGGCACAUAUAUA`: “RBNS enrichment (R)” 0.497.
